Measured values pooled from the literature.
Each numbered part is a random draw from the data of one study; scales do not carry over between parts. Positions count from the first letter of the parent shown.

Sample 1
Target: Interferon regulatory factor 7, full length, phosphomimetic (IRF7, Homo sapiens, UniProt Q92985, residues 1-503, S101K/S471D/S472D/S475D/S476D/S477D/S483D/S484D/S487D)
UniProt Q92985, sequence (whole entry, unmodified, looked up): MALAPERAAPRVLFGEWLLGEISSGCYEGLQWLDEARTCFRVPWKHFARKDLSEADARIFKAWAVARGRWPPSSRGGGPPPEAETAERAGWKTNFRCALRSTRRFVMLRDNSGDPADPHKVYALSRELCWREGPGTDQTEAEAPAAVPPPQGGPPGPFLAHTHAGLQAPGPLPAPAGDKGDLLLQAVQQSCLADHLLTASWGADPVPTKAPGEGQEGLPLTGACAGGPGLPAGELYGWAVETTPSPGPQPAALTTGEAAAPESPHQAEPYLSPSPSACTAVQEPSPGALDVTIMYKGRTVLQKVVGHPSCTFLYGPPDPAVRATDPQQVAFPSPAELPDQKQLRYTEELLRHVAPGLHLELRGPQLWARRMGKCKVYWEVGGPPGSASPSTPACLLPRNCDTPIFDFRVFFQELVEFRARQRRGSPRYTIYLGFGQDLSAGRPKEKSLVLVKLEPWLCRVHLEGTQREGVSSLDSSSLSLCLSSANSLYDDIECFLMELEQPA
Method: protein-binding microarray
Molecule type: double-stranded DNA, one strand shown
Sample: in vitro
Tested at: 250 nM
Setting: 60-bp whole probe
Added: salmon DNA 0.4 mg/ml
Baseline: random background probes
Reading: higher = stronger binding
Constant ends, left off below: GCCTAGCAC … GTCTTGATTCGCTTGACGCTGCTG
Sequence	log fluorescence
GACGGTATCGGTATCGGGCCGTGCTAG	0.809 z-score
TTAGATCTCAGTATCGGTTAGTGCTAG	0.891 z-score
TTAGAACTGCGTATCGATTAGTGCTAG	-0.0342 z-score
TTATGTATCGGGTATCGGTTAGTGCTA	0.796 z-score
GGAGAGTTCCAGGAGGTCGAGTGCTAG	-0.766 z-score
TTAGATCTGAGTCTCGATTAGTGCTAG	1.02 z-score
TTAGGTTCCGGCTTCGGTTAGTGCTAG	2.08 z-score
TCAGTTTTCTAAACCATACTGTGCTAG	1.33 z-score
TTAGGACTGGGGACTGGGGTAGTGCTA	-0.385 z-score
GAGATGATCCAGTTTTACCTGGTGCTA	-0.418 z-score
GACGATCTCAGACGGGAGACGTGCTAG	-0.271 z-score
GTCATTATCCTTGTCCCTCCGTGCTAG	0.755 z-score
GACGGACTGCTTTTCCTGAGGTGCTAG	0.0615 z-score
TCATGTTTCTTCTGCTGACTGTGCTAG	1.11 z-score
TTAGAGCTCAGTTTCGATTAGTGCTAG	7.95 z-score
TCATTTTCATTTTCCAAACTGTGCTAG	4.22 z-score
GACGGTTTTCTACTGCTGACGTGCTAG	0.841 z-score
TTAGGTATCGACTATCGTTTAGTGCTA	0.47 z-score
TACGGTTTCGGTCTCGGGACGTGCTAG	7.73 z-score
TTAGCTATCGACTATCGGTTAGTGCTA	-0.288 z-score
TTAGATATCAGTATCGGTTAGTGCTAG	1.18 z-score
TCACATTTTAGTTTTCAACTGTGCTAG	1.38 z-score
TTAAATTCCAGTTTCGATTAGTGCTAG	9.39 z-score
TTAGGACTGGGGTATCGGTTAGTGCTA	0.197 z-score
CACCCACTCTTTCCTCACCATGTGCTA	0.882 z-score

Sample 2
Target: Histone acetyltransferase KAT6A, winged helix 1, GST fusion (KAT6A, Homo sapiens, UniProt Q92794, residues 1-85)
Method: protein binding microarray
Molecule type: double-stranded DNA, one strand shown
Sample: in vitro
Tested at: not given
Setting: 8-mer, flanks averaged, mean of 2 arrays, mostly near background
Baseline: not given
Reading: higher = stronger binding
Construct (chain): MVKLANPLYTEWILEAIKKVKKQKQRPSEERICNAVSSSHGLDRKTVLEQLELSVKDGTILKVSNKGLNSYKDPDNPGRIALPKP
Sequence	E-score
ATTATATG	-0.152
ATAACCCC	-0.0699
ATCGCATC	0.102
CTGACGTA	0.05
AATGGGCC	-0.0554
TGTGAAAA	-0.0903
CATTGGGG	-0.258
ACCGATTG	0.00095
GGTCAGAC	-0.0211
CCGTGCAC	0.246
GGGGCTTA	-0.00833
ACCATTTC	-0.118
TCTTACAA	-0.12
GGTACAGA	0.044
TACCAAAA	-0.106
AACTCCAT	-0.0621
CGGCAGTA	0.338
ACGGAGCA	-0.00505
AGTGTTAG	-0.162
CTGAATTA	-0.06
GCGGTAAA	0.337
AGCACTTG	-0.149
GAGAATCC	-0.0288
CATGCGAG	0.045
AAGGCGAG	0.0232

Sample 3
Target: Prothrombin, mature alpha-thrombin (F2, Homo sapiens, UniProt P00734)
Method: aptamer microarray, sandwich
Molecule type: DNA with 2'F-ANA
Sample: in vitro
Tested at: 200 nM
Setting: whole 15-mer aptamer, many near background
Added: Cy3 exosite-II aptamer, 400 nM
Reading: higher = stronger binding
Sequence: GGTTGGTGTGGTTGG
Modification	mean fluorescence intensity
2'F-ANA at 1 2 3 6 8 11 12 13 14 15	86.5 a.u.
2'F-ANA at 2 4 5 6 7 9 10 14	58.6 a.u.
2'F-ANA at 1 2 5 6 9 10 12 14 15	46 a.u.
2'F-ANA at 8 9 10 11 13 14 15	96.6 a.u.
2'F-ANA at 2 4 5 6 9 14	51.1 a.u.
2'F-ANA at 1 4 7 10 12 14	46.6 a.u.
2'F-ANA at 3 4 5 7 8 9 11 12 13 15	109 a.u.
2'F-ANA at 7 9 13 14 15	192 a.u.
2'F-ANA at 6 7 9 11 13 14	150 a.u.
2'F-ANA at 2 4 5 6 8 9 10 12 14	47.4 a.u.
2'F-ANA at 2 3 4 6 7 8 11 13 15	364 a.u.
2'F-ANA at 1 2 3 5 6 8 9 10 13 14 15	61.2 a.u.
2'F-ANA at 1 3 8 9 11 13 14 15	146 a.u.
2'F-ANA at 1 2 4 6 7 9 11	89 a.u.
2'F-ANA at 2 3 6 7 8 9 10 11 15	303 a.u.
2'F-ANA at 2 3 8 14 15	424 a.u.
2'F-ANA at 4 6 8 9 14 15	95.4 a.u.
2'F-ANA at 2 3 5 7 8 11 12 14 15	79.9 a.u.
2'F-ANA at 1 4 5 8 9 10 12 13 14	47.3 a.u.
2'F-ANA at 2 4 5 6 8 9 11 12 14	46.8 a.u.

Sample 4
Target: ATF2, bZIP domain (human)
Method: DHFR protein complementation
Sample: yeast
Setting: single substitutions, most at no-binding floor
Baseline: wild-type JUN-FOS pair
Reading: higher = stronger binding
Starting sequence: JUN, bZIP domain (human); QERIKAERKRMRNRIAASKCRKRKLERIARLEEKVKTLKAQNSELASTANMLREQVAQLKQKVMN; partner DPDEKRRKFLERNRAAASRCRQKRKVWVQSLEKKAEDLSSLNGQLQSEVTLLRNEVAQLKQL
Change	binding fitness [natural log]
S43V	-1.38
L31S	-1.44
A57E	-1.54
A46K	-1.4
L45T	-1.55
K36G	-1.45
R53G	-1.5
Q58R	-1.5
L45K	-1.52
A49F	-1.28
L59C	-1.42
V35P	-1.48
L38W	-1.49
T48D	-1.54

Sample 5
Target: ABI1, truncated, D143A, DHFR fusion (Arabidopsis thaliana)
Method: DHFR PCA, deep sequencing
Sample: yeast
Setting: methotrexate growth selection, single substitutions
Added: (+)-ABA 200 µM
Baseline: wild-type fitted maximum
Reading: higher = stronger binding
Starting sequence: PYL1, truncated, DHFR fusion (Arabidopsis thaliana); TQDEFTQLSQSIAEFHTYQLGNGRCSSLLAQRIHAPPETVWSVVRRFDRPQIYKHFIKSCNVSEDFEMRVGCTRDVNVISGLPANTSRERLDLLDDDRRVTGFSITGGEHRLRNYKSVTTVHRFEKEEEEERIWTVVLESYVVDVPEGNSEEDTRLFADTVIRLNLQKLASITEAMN; partner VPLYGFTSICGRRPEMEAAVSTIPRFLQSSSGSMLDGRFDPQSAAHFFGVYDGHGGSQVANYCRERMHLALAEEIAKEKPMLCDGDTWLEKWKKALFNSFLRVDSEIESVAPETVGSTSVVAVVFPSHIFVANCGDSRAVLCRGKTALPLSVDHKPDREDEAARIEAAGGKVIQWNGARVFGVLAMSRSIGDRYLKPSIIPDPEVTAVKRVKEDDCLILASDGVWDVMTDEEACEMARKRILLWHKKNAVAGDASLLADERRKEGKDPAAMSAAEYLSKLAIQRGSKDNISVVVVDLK
Change	relative binding score [%]
H110G	50.9
S27V	7.9
T6D	97.1
T135K	-4.41
H34Q	90.8
Q19A	97.4
S42D	97.5
T101S	98.1
A30G	94.1
N22Y	101
G23P	65.6
R155M	93.8
V44P	-3.55
N61E	107

Sample 6
Target: Ras GTPase-activating protein-binding protein 1, full length (G3BP1, Homo sapiens, UniProt Q13283)
UniProt Q13283, sequence (whole entry, looked up): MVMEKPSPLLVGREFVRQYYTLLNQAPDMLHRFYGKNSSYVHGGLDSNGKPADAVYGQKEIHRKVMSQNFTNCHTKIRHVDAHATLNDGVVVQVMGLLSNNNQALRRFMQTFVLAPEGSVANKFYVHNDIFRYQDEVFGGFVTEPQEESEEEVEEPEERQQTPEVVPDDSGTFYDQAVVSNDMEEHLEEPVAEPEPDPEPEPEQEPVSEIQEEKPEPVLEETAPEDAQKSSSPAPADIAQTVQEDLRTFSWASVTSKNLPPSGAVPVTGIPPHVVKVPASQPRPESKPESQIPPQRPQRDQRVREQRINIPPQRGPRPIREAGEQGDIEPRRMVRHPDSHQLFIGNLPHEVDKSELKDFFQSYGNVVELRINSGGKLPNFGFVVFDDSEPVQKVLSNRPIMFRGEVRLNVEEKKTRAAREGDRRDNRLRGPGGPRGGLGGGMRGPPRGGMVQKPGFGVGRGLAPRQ
Method: RNA Bind-n-Seq
Molecule type: RNA
Sample: in vitro
Tested at: 200 nM
Setting: whole 134-nt RNA, ends assumed
Added: 150 mM KCl
Baseline: input library
Reading: higher = stronger binding
Constant ends, left off below: GGGAGUUCUACAGUCCGACGAUC … UGGAAUUCUCGGGUGUCAAGG
Sequence	log2 enrichment
UAACUUUAGAGGAGGAUCUGAUGGAUAUGGCAGUGGACUUGGAUUUGGGGAUGGCUAUAAUGGGUAUGGAGGAGGACCUGGAGGUGGCAA	0.263
ACAAUGCAGGUGGGCAUCUUUGGGAAGUGGGGCAAGGGGGGGAUAGGGAGGGGGGUAACACUUUGGGAACAGGUGGUCCCAGGUCGUUUC	1.49
UUUCCCCUGGAGGGCGCCUCCAUCCUUGGAGGCCUAGUGCCGUCGGAGAGAGAGCGGGAGCCGCGGACAGAGACGCGUGCGCAAUUCGGA	-0.942
UGGCCCUGGUGGCAUGCGGGGAGGAAGAGGUGGCCUCUUGGAUCGUGGUGGUCCCGGUGGAAUGUUCAGAGGUGGCCGUGGUGGAGACAG	0.305
UUCCUCAAGUCCUGUGCUACACAUCGUAUGUACCGAAUCGGUGGUGGUGGAAAGUAUUAUGUUACGCCGUUCGGAUCUGCACUUCCAGCA	-0.514
UGAAUGCUGAGAAUGUUGCUGGUCACCAGAUUGCCUCUGAAACACAGAUCCUUGAGGGCUCUUUGGGAAUAUCUGUAAAGUCACACUGCA	0.13
CUCAAGUCCUGUGCUACACAUCGUAUGUACCGAAUCGGAAGGGGAAGGGGAAGGAAAGUAUUAUGUUACGCCGUUCGGAUCUGCACUUCC	-0.138
CACAGACAACACGCACCCACACAGACACAGAGGGAAGGGGUUGGGAUGGGUACAGGGUGCACAGCAGGGCGGGGUAGGACCCCAGCCCCU	1.88
AGUCCUGUGCUACACAUCGUAUGUACCGAAUCGGGCCCCCGGCCCCCGGCCCCCGGGAAAGUAUUAUGUUACGCCGUUCGGAUCUGCACU	-0.531
AGUCCUGUGCUACACAUCGUAUGUACCGAAUCGGUUUUUGGUUUUUGGGGUUUUUGGGAAAGUAUUAUGUUACGCCGUUCGGAUCUGCAC	-1.05
CACAGACAACACGCACCCACACAGACACAGAGGGAAGGGGUUGGGAUGGGGACAGGGUGCACAGCAGGGCGGGGUAGGACUCCAGCCCCU	1.98
UGGCCCUGGUGGCAUGCGGGGAGGAAGAGGUGGCCUCAUGGAUCGUGGUGGUCCCGGUGGAAUGUUCAGAGGUGGCCGUGCUGGAGACAG	-0.0521
CAAGUCCUGUGCUACACAUCGUAUGUACCGAAUCGGUUUGGUUUUUGGUUUUUGGAAAGUAUUAUGUUACGCCGUUCGGAUCUGCACUUC	-0.966
CCUCAAGUCCUGUGCUACACAUCGUAUGUACCGAAUCGGGAGGGAGGGAGGGGAAAGUAUUAUGUUACGCCGUUCGGAUCUGCACUUCCA	1.2

Sample 7
Target: CCND2, cyclin fold, Cln2 fusion (human)
Method: yeast growth competition, sequencing
Sample: yeast
Setting: weak parent motif
Baseline: not given
Reading: higher = stronger binding
Starting sequence: SGO1 docking peptide (human); PLAKRALKYTDEK
Change	normalised enrichment score
P1A	0.0956
Y9A	0.0121
D11A	-0.191
T10A	0.476
K4A	0.175

Some of these lines once more (sample 4):
Change	binding fitness [natural log]
A49F	-1.28
A57E	-1.54
L31S	-1.44
Q58R	-1.5
A46K	-1.4
K36G	-1.45
V35P	-1.48
R53G	-1.5
L38W	-1.49
L45K	-1.52
T48D	-1.54
S43V	-1.38
L45T	-1.55
L59C	-1.42
